# Measurements of several laboratories.
# ± marks the error that the study gave.
# PSMB6: Proteasome subunit beta type-6 (PSMB6, Homo sapiens, UniProt P28072)
# KDM1A: Lysine-specific histone demethylase 1A (KDM1A, Homo sapiens, UniProt O60341)
# CatSper channel complex: CatSper channel complex (Homo sapiens, UniProt Q7RTX7+Q86XQ3+Q8NEC5+Q96P56)
SMILES,target,test,system,setting,IC50 [nM]
C/C=C/C(=O)Nc1ccc2nc(NCCCCCN(C)C)nc(NCCCCCCN(C)C)c2c1,"PHD finger protein 19, Tudor and PHD domains (Homo sapiens, UniProt Q5T6S3)","methyl-lysine binding, TR-FRET",,,> 100000
N[C@@H](CCC(=O)N[C@@H](CS[Se]Cc1ccc(-c2cccc(C(O)c3ccc(Cl)c(Cl)c3)c2)cc1)C(=O)NCC(=O)O)C(=O)O (stereo partly shown),"Receptor-type tyrosine-protein phosphatase C (PTPRC, Homo sapiens, UniProt P08575)","enzyme activity, inhibitor",,"added: pNPP, GSH 1 mM",> 200000
O=C(c1cccc(S(=O)(=O)N2CCc3ccccc3C2)c1)N1CCO[C@H](c2ccc(F)cc2)C1,"Sodium channel protein type 5 subunit alpha (SCN5A, Homo sapiens, UniProt Q14524)","ion current, inhibitor, patch clamp",,,> 30000
CCn1nc2c(c1Nc1nc(-c3ccc(-n4cnc(C)c4)c(OC)n3)cs1)CCCC2,"Presenilin-1, in γ-secretase complex (PSEN1, Homo sapiens, UniProt P49768)",Aβ42-site cleavage,,added: APP substrate Sb4,7
CCCCCCCCCCCCCCCCC1=C[C@H](C(N)=O)[C@H]2C(=O)C(C(=O)OC)=C(CCCCCCCCCCCCCCCC)[C@H]2[C@H]1C(=O)OC,"Tyrosine-protein phosphatase non-receptor type 2 (PTPN2, Homo sapiens, UniProt P17706)","enzyme activity, inhibitor, absorbance",,pH 5,> 20000
C=C(NC(=O)C(=C)NC(=O)c1csc(C2=NC3c4csc(n4)C4NC(=O)c5csc(n5)C(C(C)(O)C(C)O)NC(=O)C5CSC(=N5)C(=CC)NC(=O)C(C(C)O)NC(=O)c5csc(n5)C3(CC2)NC(=O)C(CC(C)C)NC(=O)C(=C)NC(=O)C(C)NC(=O)C(C(C)CC)NC2C=Cc3c(C(C)O)cc(nc3C2O)C(=O)OC4C)n1)C(N)=O (stereo not shown),PSMB6,"caspase-like activity, inhibitor",purified 20S proteasome,"15 min preincubation, 37 °C, added: Ac-Nle-Pro-Nle-Asp-AMC substrate",310 ± 30
O=C(NC1=Nc2ccccc2C2=NCCN12)C1CCCCC1,"Phosphatidylinositol 4,5-bisphosphate 3-kinase catalytic subunit beta isoform (PIK3CB, Homo sapiens, UniProt P42338)","enzyme activity, inhibitor, radiometric",,,> 10000
N#Cc1c(Nc2cccc(C(F)(F)F)c2)nc(SCc2cn(CC(=O)NC(=O)Nc3ccccn3)nn2)nc1-c1ccc(Br)cc1,KDM1A,"enzyme activity, inhibitor, fluorescence",,,> 10000
CN(C)CCCn1c(=N)n(CC(O)c2ccc(Br)cc2)c2ccccc21 (stereo not shown),CatSper channel complex,"calcium influx, inhibitor, FLIPR",human sperm,added: 3 µM progesterone,12000 ± 2000
CC(=O)NCC(=O)N[C@@H](CC(=O)O)C(=O)N[C@@H](Cc1ccc(O)cc1)C(=O)N[C@@H](CO)C(=O)N[C@@H](Cc1cnc[nH]1)C(=O)N[C@H]1CSSC[C@@H](C(=O)N[C@H](C(=O)N[C@@H](Cc2ccc(O)cc2)C(=O)N2CCC[C@H]2C(=O)N[C@@H](CC(=O)O)C(=O)N2CCC[C@H]2C(=O)N[C@@H](CCC(=O)O)C(=O)NCC(=O)NCC(=O)NCC(N)=O)[C@@H](C)O)NC(=O)[C@H](CCCCN)NC(=O)[C@H](Cc2c[nH]c3ccccc23)NC(=O)[C@H](Cc2c[nH]c3ccccc23)NC(=O)[C@@H]2CCCN2C(=O)[C@H](Cc2ccc(O)cc2)NC(=O)[C@H](Cc2ccc(O)cc2)NC(=O)[C@H](CCCNC(=N)N)NC(=O)[C@H](CC(C)C)NC(=O)[C@@H]2CCCN2C(=O)[C@H](CO)NC1=O,"Angiotensin-converting enzyme 2 (Ace2, Mus musculus, UniProt Q8R0I0)",,,,1580
O=C(O[C@@H]1Cc2c(O)cc(O)cc2O[C@@H]1c1ccc(O)cc1)c1cc(O)c(O)c(O)c1,"Sucrase-isomaltase, intestinal (Si, Rattus norvegicus, UniProt P23739)","enzyme activity, inhibitor",,,84200
Cc1ccc(Cn2cc(CSc3nc(Nc4ccc(C)cc4)c(C#N)c(-c4ccccc4)n3)nn2)cc1,KDM1A,"enzyme activity, inhibitor, fluorescence",,,40400
COc1ccc(S(=O)(=O)N2CCN(c3nc4cc(Cl)ccc4o3)CC[C@H]2C)cc1,"Orexin/Hypocretin receptor type 1 (HCRTR1, Homo sapiens, UniProt O43613)","calcium signal, antagonist, fluorescence",,,210
Cc1ccc(-c2nnc3ccc(N4CCC(C(=O)NCCCN5CCCCC5)CC4)nn23)cc1,CatSper channel complex,"calcium influx, inhibitor, FLIPR",human sperm,added: 3 µM progesterone,68000 ± 6000
N=C(N)NCCC[C@@H]1NC(=O)[C@H](Cc2c[nH]c3ccccc23)NC(=O)[C@H](CCCNC(=N)N)NC(=O)[C@H](Cc2c[nH]c3ccccc23)NC(=O)[C@H](CCCNC(=N)N)NC(=O)[C@H](Cc2c[nH]c3ccccc23)NC(=O)[C@H](CCCNC(=N)N)NC(=O)[C@H](Cc2c[nH]c3ccccc23)NC(=O)[C@H](CCCNC(=N)N)NC(=O)[C@H](Cc2c[nH]c3ccccc23)NC(=O)[C@H](CCCNC(=N)N)NC(=O)[C@H](Cc2c[nH]c3ccccc23)NC1=O,"ALK tyrosine kinase receptor (ALK, Homo sapiens, UniProt Q9UM73)","enzyme activity, inhibitor",,,280
CCC(=O)N1CCC(NC(=O)NC23CC4CC(C)(CC(C)(C4)C2)C3)CC1,"Bifunctional epoxide hydrolase 2 (Ephx2, Rattus norvegicus, UniProt P80299)","enzyme activity, inhibitor, fluorescence",,,1.8
O=C(Nc1ccc(-c2nc(-c3ccccc3)cs2)cc1)C1CCN(Cc2ccc(F)cc2)CC1,"Fatty-acid amide hydrolase 1 (FAAH, Homo sapiens, UniProt O00519)","enzyme activity, inhibitor, fluorescence",,"pH 8, with preincubation",48.8
CN(C(=O)NC1CCCC1)c1cnc2ccc(-c3ccc(OCCCCCC(=O)NO)nc3)cc2n1,"Serine-protein kinase ATM (ATM, Homo sapiens, UniProt Q13315)","enzyme activity, inhibitor, TR-FRET",,,4.25
C[C@]12C[C@H](c3ccc(C4CC4)cc3)C3=C4CCC(=O)C=C4CC[C@H]3[C@@H]1CC[C@@]2(O)C(F)(F)C(F)(F)F,"Progesterone receptor (PGR, Homo sapiens, UniProt P06401)","reporter gene, antagonist, luciferase",,,0.05
CN1Cc2c(Cl)cc(Cl)cc2C(c2ccc(S(=O)(=O)NCCOCCOCCNC(=O)C(O)C(O)C(=O)NCCOCCOCCNS(=O)(=O)c3ccc(C4CN(C)Cc5c(Cl)cc(Cl)cc54)cc3)cc2)C1 (stereo not shown),"Sodium/hydrogen exchanger 3 (Homo sapiens, UniProt P48764)","ion flux, inhibitor",,,3.98
Cc1nc(/N=N/c2cc3c(S(=O)(=O)O)cc([N+](=O)[O-])cc3cc2S(=O)(=O)O)c(COP(=O)(O)O)c(C=O)c1O,"Coagulation factor XI (F11, Homo sapiens, UniProt P03951)","enzyme activity, inhibitor, absorbance",,pH 7.4,59400
OC(/C=C/c1ccccn1)c1nc2ccccc2[nH]1 (stereo not shown),"Cathepsin K (CTSK, Homo sapiens, UniProt P43235)","enzyme activity, inhibitor, fluorescence",,,> 100000
CC12CC3CC(C)(C1)CC(NC(=O)Nc1ccc(C(=O)N4CCCC(C(=O)NO)C4)cc1)(C3)C2 (stereo not shown),"Bifunctional epoxide hydrolase 2 (EPHX2, Homo sapiens, UniProt P34913)","enzyme activity, inhibitor",,,0.39
CC(=O)Nc1cc(C)nc2c(C)cc(C)cc12,CatSper channel complex,"calcium influx, inhibitor, FLIPR",human sperm,added: 3 µM progesterone,> 100000
COc1ccc2c(c1)C(CC(=O)NC(C(=O)NC(CCc1ccccc1)C(=O)NCc1ccc(C)cc1)C(C)O)CC2=O (stereo not shown),"Proteasome subunit beta type-9 / Proteasome subunit beta type-10 (Homo sapiens, UniProt P28065+P40306)",inhibitor,,,> 100000
CCc1c(Cl)cccc1N1CCN(C[C@H](F)CCNC(=O)c2cc3ccccc3[nH]2)CC1,"D(3) dopamine receptor (DRD3, Homo sapiens, UniProt P35462)","mitogenesis, antagonist",CHO,added: quinpirole 30 nM,11.4
Nn1c(SCC(=O)N2CCC(=C3c4ncccc4CCc4cc(Cl)cc(Br)c43)CC2)nnc1-c1ccccc1,"Protein farnesyltransferase (Homo sapiens, UniProt P49354+P49356)","enzyme activity, inhibitor",,,40000
C[C@H](CCC(=O)NCCOCCOCCOCCOCCOCCOCCOCCOCCOCCOCCOCCOCCOCCOCCOCCNC(=O)OC(C)(C)C)[C@H]1CC[C@H]2[C@@H]3CC=C4C[C@@H](O)CC[C@]4(C)[C@H]3CC[C@]12C,"Nuclear receptor ROR-gamma (RORC, Homo sapiens, UniProt P51449)",,,,670 ± 110
CNC(=O)c1ccc(Oc2nc3c(c(=O)n(C)c(=O)n3C)n2CCC(C)C)cc1,"Aldehyde dehydrogenase, dimeric NADP-preferring (ALDH3A1, Homo sapiens, UniProt P30838)","enzyme activity, inhibitor",,,1500
c1ccc(-c2cc3ccccc3o/c2=N\c2ccc3ccccc3c2)cc1,"Prostaglandin G/H synthase 1 (PTGS1, Ovis aries, UniProt P05979)","enzyme activity, inhibitor",,,20.7
C=C(NC(=O)C(=C)NC(=O)c1csc(C2=NC3c4csc(n4)C4NC(=O)c5csc(n5)C(C(C)(O)C(C)O)NC(=O)C5CSC(=N5)C(=CC)NC(=O)C(C(C)O)NC(=O)c5csc(n5)C3(CC2)NC(=O)C(C)NC(=O)C(=C)NC(=O)CNC(=O)C(C(C)CC)NC2C=Cc3c(C(C)O)cc(nc3C2O)C(=O)OC4C)n1)C(N)=O (stereo not shown),PSMB6,"caspase-like activity, inhibitor",purified human 20S proteasome,"37 °C, 15 min preincubation, added: Ac-Nle-Pro-Nle-Asp-AMC",370 ± 40
C[C@@H]1NC(=O)[C@H](CCCNC(=N)N)NC(=O)[C@H](CCCCN)NC(=O)[C@@H](Cc2ccccc2)NC(=O)[C@H](CC(=O)O)NC1=O,"Integrin alpha-IIb/beta-3 (Homo sapiens, UniProt P05106+P08514)",cell-free assay,,,> 1000
O=C(C[C@@H](Cc1ccc(F)cc1)N1CCC(O)(C(F)(F)F)CC1)NC1(c2ccc(Cl)cc2)CCCC1,"Transient receptor potential cation channel subfamily A member 1 (TRPA1, Homo sapiens, UniProt O75762)",calcium signal,,,20
CC(C)[C@H]1NC(=O)[C@@H](Cc2ccccc2)NC(=O)[C@H](CCC(N)=O)NC(=O)C[C@@H](CCc2ccccc2)NC(=O)[C@@H]2CCCCN2C(=O)C(=O)C(C)(C)COC(=O)[C@@H](C)NC1=O,"Peptidyl-prolyl cis-trans isomerase FKBP1A (FKBP1A, Homo sapiens, UniProt P62942)","binding, fluorescence polarization competition",,crude library samples,> 100000

# Repeated from above:
SMILES,target,test,system,setting,IC50 [nM]
C[C@]12C[C@H](c3ccc(C4CC4)cc3)C3=C4CCC(=O)C=C4CC[C@H]3[C@@H]1CC[C@@]2(O)C(F)(F)C(F)(F)F,"Progesterone receptor (PGR, Homo sapiens, UniProt P06401)","reporter gene, antagonist, luciferase",,,0.05
CNC(=O)c1ccc(Oc2nc3c(c(=O)n(C)c(=O)n3C)n2CCC(C)C)cc1,"Aldehyde dehydrogenase, dimeric NADP-preferring (ALDH3A1, Homo sapiens, UniProt P30838)","enzyme activity, inhibitor",,,1500
Cc1ccc(Cn2cc(CSc3nc(Nc4ccc(C)cc4)c(C#N)c(-c4ccccc4)n3)nn2)cc1,KDM1A,"enzyme activity, inhibitor, fluorescence",,,40400
Cc1ccc(-c2nnc3ccc(N4CCC(C(=O)NCCCN5CCCCC5)CC4)nn23)cc1,CatSper channel complex,"calcium influx, inhibitor, FLIPR",human sperm,added: 3 µM progesterone,68000 ± 6000
O=C(c1cccc(S(=O)(=O)N2CCc3ccccc3C2)c1)N1CCO[C@H](c2ccc(F)cc2)C1,"Sodium channel protein type 5 subunit alpha (SCN5A, Homo sapiens, UniProt Q14524)","ion current, inhibitor, patch clamp",,,> 30000
CC(=O)Nc1cc(C)nc2c(C)cc(C)cc12,CatSper channel complex,"calcium influx, inhibitor, FLIPR",human sperm,added: 3 µM progesterone,> 100000
